Measured values of several laboratories.
Numbered parts are unrelated; each lists some results of a single study.

Series 1
Target: Prothrombin, mature alpha-thrombin (F2, Homo sapiens, UniProt P00734)
Technique: aptamer microarray, sandwich
Molecule type: DNA with 2'F-ANA
Matrix: in vitro
Concentration: 200 nM
Setting: whole 15-mer aptamer, many near background
With: Cy3 exosite-II aptamer, 400 nM
Reading: higher = stronger binding
Quantity: mean fluorescence intensity
Strand: GGTTGGTGTGGTTGG
2'F-ANA at 2 3 5 13 14 15: 49.4 a.u.
2'F-ANA at 5 6 8 9 11 12 13 15: 94.6 a.u.
2'F-ANA at 2 6 7 14 15: 138 a.u.
2'F-ANA at 2 3 7 8 10 15: 423 a.u.
2'F-ANA at 1 3 11 12 14 15: 118 a.u.
2'F-ANA at 3 4 5 6 9 10 11 12 14 15: 51.8 a.u.
2'F-ANA at 1 2 3 4 5 6 10 11 14 15: 51 a.u.
2'F-ANA at 1 2 3 8 9 14: 223 a.u.
2'F-ANA at 1 3 6 8 12 13: 499 a.u.
2'F-ANA at 1 3 6 8 9 10 15: 82.7 a.u.
2'F-ANA at 1 2 5 6 10 13 15: 50 a.u.
2'F-ANA at 2 4 6 7 8 9 11 13 14: 104 a.u.
2'F-ANA at 1 4 7 8 11 13 14: 54.2 a.u.
2'F-ANA at 2 5 6 7 8 10 12 14 15: 50.5 a.u.
2'F-ANA at 3 4 5 8 9 10 14 15: 72.8 a.u.
2'F-ANA at 5 6 9 10 12 13 14: 56.7 a.u.
2'F-ANA at 1 3 6 9 10 11 13 15: 65.9 a.u.
2'F-ANA at 1 3 6 7 9 11 13 14 15: 74.4 a.u.
2'F-ANA at 6 7 10 11 13 14 15: 113 a.u.
2'F-ANA at 3 4 7 8 9 11 14 15: 326 a.u.
2'F-ANA at 3 6 8 9 11 12 14: 546 a.u.
2'F-ANA at 2 4 9 10 11 12 13: 94.2 a.u.
2'F-ANA at 2 3 5 6 9 10 11 15: 50.2 a.u.
2'F-ANA at 1 3 4 6 12 15: 382 a.u.
2'F-ANA at 3 7 9 13 14: 648 a.u.

Series 2
Target: RING finger protein unkempt homolog, zinc fingers 1-6, GST-SBP tag (UNK, Homo sapiens, UniProt Q9C0B0, residues 30-357)
UniProt Q9C0B0, sequence (30-357, looked up): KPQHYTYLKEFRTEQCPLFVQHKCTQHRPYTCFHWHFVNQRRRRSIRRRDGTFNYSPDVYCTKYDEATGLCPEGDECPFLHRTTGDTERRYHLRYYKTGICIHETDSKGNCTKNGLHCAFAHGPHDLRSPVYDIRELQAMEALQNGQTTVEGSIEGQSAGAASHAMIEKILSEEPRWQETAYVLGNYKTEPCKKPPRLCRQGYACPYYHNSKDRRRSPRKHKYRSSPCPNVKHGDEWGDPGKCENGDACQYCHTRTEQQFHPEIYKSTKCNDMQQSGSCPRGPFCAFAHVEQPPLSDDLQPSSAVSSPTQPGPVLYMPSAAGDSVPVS
Technique: RNA Bind-n-Seq
Molecule type: RNA
Matrix: in vitro
Concentration: not given
Setting: RNA with constant flanks, ends assumed
Baseline: input RNA pool
Reading: higher = stronger binding
Quantity: bound/input enrichment
Shared flanks, not repeated: GGGAGUUCUACAGUCCGACGAUC … CAACAGAGGAUUGAGCAUCA
CUAUAUCUGAAACUUACAUUUGACCUCAUAGAGAAAGGCUAUCUAGUGUUAAAGAGCUCCCGCUACAAAGUAGUUCCUGUUUCGCUCUCAGAGGUUUAUUUACUCCAGUGCAAUAUGAAG: 1.01 ratio
CCACUUCCAGGACCUAACCCCAUCUUGCCAGGGCGAGGCGGCCCCAAUGACAGAUUUCCCUUCCGACCCAGCAGGGGUCGGCCAACUGAUGGCCGGCUGUCAUUCAUGUGAUUGAUUUGU: 0.378 ratio
AUUGUAAAUGAUUUGUAUCGUAUGAUUAAGGAUCUAAGGCACAAUAUUUGUCACUGUUCUAUCCGACUUUUUACUGAAAAUGAAUAAUGGUGUAAUGGUUCUCCUGGGGCUGUCACAUUU: 0.14 ratio
GACUUGCUUCUGCAGGCUUGUCCAUUUGGUACUUUAUUAGAUGCCAACUUACAGAAUUCAUCCGAUAAUACCAAUUUUGCAUCUGUGACUCAGCCACAGAAACAGCCAGCUUGGAAAACU: 0.109 ratio
GAACAUAAAGCUGAGAAAGUCCCAGCAGUAGCCAACUACAUUAUGAAAAUACACAAUUUUACCCGCAAAUGCCUCUACUGUAAUCGCUAUUUACCCACAGAUACUCUGCUCAACCAUAUG: 1.93 ratio
ACAGAGCCUCUUGUCCCACCUUUGUCCCCUGGCUGCUGCCCUCCCAUUCUCCCCCUCCAGCCGCCGCUGGGUGAGACCUGUCCGCCCACCUUCCCUCCACUACAGAACCUGCAGCCGCAA: 0.45 ratio
AUACAAGUGACUACGAAAGACAUCCUAGUUACAGAGAAAGGAAAUACUGUGUUAGAAUUUUCCGCCGGACUCUUUAAACCUUUUGUGGAAAGCUAUCAGAUAAUUUGCAAGUACCUUUUG: 0.241 ratio
GCAAGAAUUGAUGCUGUGAAUGCUGAGACAAUUCGAGAAGUAUGUACCAAAUACAUUUAUAACCGGAGUCCAGCUAUUGCUGCUGUUGGUCCCAUUAAGCAACUACCAGAUUUUAAACAG: 0.238 ratio
GCACAUGCCACUGUCACCAAAACAAACAACUACCACUUUCCAAAUUUCAUUCAGAACCAUUUCCGUGUUUUCCUAUUCCCUACCCCUCCCACUACUUUCAAUGAUGAAAUACCCUAAGUU: 1.01 ratio
AGGCCUUGGUUUACACCCAGAUCCAUUUAUAUGGAAGCAUCUACAGUGGAUUGUAAUGAUUCCGGUCUUUUAACUUUCCCAGCCAGAUUGCCAGCUAACACACAGAUUCUUCUCCUACAG: 0.191 ratio
CCAGAAGUGGAAUCUUUACAGGACUAUAAGAAUACAUUUCCCAAAUGGAAACCAGGAAGCCCCGCAUCCCAUGUCAAAAACUUGGAUGAAAAUGGCUUGGAUUUGCUCUCGAAAAUGUUA: 0.134 ratio

Series 3
Target: Interferon regulatory factor 5, full length, phosphomimetic (IRF5, Homo sapiens, UniProt Q13568-2, residues 1-514, S451D/S453D/S456D/S462D)
Technique: protein-binding microarray
Molecule type: double-stranded DNA, one strand shown
Matrix: in vitro
Concentration: 940 nM top
Setting: 60-bp whole probe
With: salmon DNA 0.4 mg/ml
Baseline: random background probes
Reading: higher = stronger binding
Quantity: fitted relative affinity
Shared flanks, not repeated: GCCTAGCAC … GTCTTGATTCGCTTGACGCTGCTG
GACGGACTGGGGTATCGGCACGTGCTA: 0.276 z-score
GACGGTATCGGACTGAGGACGTGCTAG: 2.82 z-score
TGAGGTATCCTTTTCCTTTAGTGCTAG: 0.414 z-score
TCAGCTACACATCTCACACTGTGCTAG: 0.236 z-score
TCACCTTTTAATTTTTAACTGTGCTAG: 1.01 z-score
AACTCTTTGCAGATAAATACGTGCTAG: -0.0172 z-score
GGCGGTTTCCTACTGCTGACGTGCTAG: 0.883 z-score
TTTTTTTTTTTTTTTTGGAAGTGCTAG: 1.3 z-score
TTAGAACTGGGGTTTCGAGTAGTGCTA: 2.19 z-score
TTAGATTTCGGGGCTGGATTAGTGCTA: 1.04 z-score
TGCTTTCTCCCAAGTCTTGTTGTGCTA: 1.77 z-score
CTGTTAAAGAATTAAGAAGGGTGCTAG: -0.555 z-score
TCACAGTTGAGTTCTGTTACTGTGCTA: 0.125 z-score
GACGGTTTCGGTTATCGGGACGTGCTA: 13.9 z-score
TTAGGTCTCCTTCTCCTGTAGTGCTAG: 0.602 z-score
TTAGGACAGGGTTTCGGTTAGTGCTAG: 5.25 z-score
GACAATCTCAGTCTCGAGACGTGCTAG: 1.53 z-score
GACGGTATCCTTTGCCTGACGTGCTAG: 0.103 z-score
GACGGACAGCTTATCCTGACGTGCTAG: -0.632 z-score
TCATTTCTCCTTTCGGAACTGTGCTAG: 1.39 z-score
GACGGTTTCGACACTGGAGACGTGCTA: 6.25 z-score
CTCGTGGTCCTGCCCTGCCTGTGCTAG: -0.557 z-score
GACGGTGTCGGGACTGGGGACGTGCTA: 0.134 z-score
GACGGACTGGGGTTTCGGGGCGTGCTA: 1.71 z-score
GACGGTTTCGGTTCTGGGACGTGCTAG: 13.3 z-score

Series 4
Target: Histone acetyltransferase KAT6A, both winged helices, GST fusion (KAT6A, Homo sapiens, UniProt Q92794, residues 1-181)
Technique: protein binding microarray
Molecule type: double-stranded DNA, one strand shown
Matrix: in vitro
Concentration: not given
Setting: 8-mer, flanks averaged, mean of 2 arrays, mostly near background
Baseline: not given
Reading: higher = stronger binding
Quantity: E-score
Construct (chain): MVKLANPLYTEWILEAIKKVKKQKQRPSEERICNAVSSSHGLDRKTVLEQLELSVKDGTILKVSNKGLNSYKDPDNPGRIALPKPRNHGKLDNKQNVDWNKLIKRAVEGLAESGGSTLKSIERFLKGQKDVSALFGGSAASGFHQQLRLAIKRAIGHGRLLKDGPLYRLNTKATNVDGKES
CTTAAATC: -0.149
ACGCCTAC: 0.0415
CAGATCTC: -0.137
AAAAATTA: 0.0235
CCTAGGAA: -0.139
CGAGTGTC: -0.0161
ACATCTTC: -0.00969
ATCTCGAC: -0.0634
CAGTTCGG: 0.0609
TAGTATCA: 0.0638
ACACAATA: -0.145
ACACCTAC: -0.107
GAATGACC: -0.0154
ATGTATGG: -0.0443
GCCCGCTA: 0.272
TGCGGACA: 0.181
AGGTACTC: -0.0577
ACACCAAC: -0.0606
GGTGCACC: -0.0783
AGTAGTAT: -0.0596
GTACCCGA: 0.0631
GAGAAAAC: -0.075
AAATAAAT: -0.096
ACTGTCCA: -0.0981
CACACTCG: -0.0576

A few entries again (series 4):
ATCTCGAC: -0.0634
ACACCTAC: -0.107
CCTAGGAA: -0.139
ACACCAAC: -0.0606
ACTGTCCA: -0.0981
CTTAAATC: -0.149
GAGAAAAC: -0.075
CAGTTCGG: 0.0609
GGTGCACC: -0.0783
GCCCGCTA: 0.272
